Assay results from different studies.
Every numbered part comes from another study and shows a few of its results, in no order. Changes are numbered by the printed parent chain.
UniProt Q12866, sequence (whole entry, looked up): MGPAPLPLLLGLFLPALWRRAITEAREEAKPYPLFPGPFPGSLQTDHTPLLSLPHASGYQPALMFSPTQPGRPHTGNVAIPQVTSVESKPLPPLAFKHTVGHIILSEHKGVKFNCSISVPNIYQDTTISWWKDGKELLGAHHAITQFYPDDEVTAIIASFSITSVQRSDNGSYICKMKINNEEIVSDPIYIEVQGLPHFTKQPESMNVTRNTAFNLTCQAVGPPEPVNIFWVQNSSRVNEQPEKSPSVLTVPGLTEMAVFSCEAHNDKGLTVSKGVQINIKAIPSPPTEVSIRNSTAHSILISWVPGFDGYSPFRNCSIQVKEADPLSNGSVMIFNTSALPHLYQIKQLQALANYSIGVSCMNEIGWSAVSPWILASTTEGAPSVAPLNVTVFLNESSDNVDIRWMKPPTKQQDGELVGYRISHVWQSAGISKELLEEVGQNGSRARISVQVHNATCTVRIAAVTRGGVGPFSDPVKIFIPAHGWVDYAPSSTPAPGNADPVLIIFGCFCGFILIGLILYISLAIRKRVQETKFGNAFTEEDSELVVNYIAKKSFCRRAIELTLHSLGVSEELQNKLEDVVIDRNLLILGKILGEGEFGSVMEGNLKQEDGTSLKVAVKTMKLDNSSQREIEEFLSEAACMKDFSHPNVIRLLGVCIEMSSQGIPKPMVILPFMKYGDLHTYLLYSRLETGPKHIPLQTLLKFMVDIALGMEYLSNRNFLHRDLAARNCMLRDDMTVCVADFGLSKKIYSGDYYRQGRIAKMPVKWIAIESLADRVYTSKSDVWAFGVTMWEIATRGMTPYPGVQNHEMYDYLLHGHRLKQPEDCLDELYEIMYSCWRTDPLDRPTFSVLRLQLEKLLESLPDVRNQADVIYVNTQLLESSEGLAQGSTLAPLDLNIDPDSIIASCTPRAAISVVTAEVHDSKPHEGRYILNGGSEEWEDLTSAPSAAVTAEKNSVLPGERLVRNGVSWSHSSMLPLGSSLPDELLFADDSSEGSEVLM
UniProt P21728, sequence (whole entry, looked up): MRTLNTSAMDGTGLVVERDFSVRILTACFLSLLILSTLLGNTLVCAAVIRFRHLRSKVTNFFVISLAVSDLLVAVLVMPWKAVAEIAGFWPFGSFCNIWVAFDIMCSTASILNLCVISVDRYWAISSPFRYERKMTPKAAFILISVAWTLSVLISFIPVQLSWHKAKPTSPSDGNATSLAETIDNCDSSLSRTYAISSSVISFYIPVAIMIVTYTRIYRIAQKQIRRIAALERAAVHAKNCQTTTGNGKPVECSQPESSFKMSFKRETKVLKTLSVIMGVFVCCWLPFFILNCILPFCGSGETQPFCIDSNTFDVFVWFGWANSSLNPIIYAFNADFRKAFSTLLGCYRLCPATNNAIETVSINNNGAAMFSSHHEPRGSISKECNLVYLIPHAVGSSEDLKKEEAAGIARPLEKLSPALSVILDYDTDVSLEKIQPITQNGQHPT

Set 1
Target: vanadate, free oxyanion
Technique: microfluidic competitive inhibition
Matrix: in vitro, cell-free expressed
Tested at: not given
Setting: derived from inhibition constants, unchanged parent 676 nM
Reading: lower = stronger binding
Starting sequence: PafA, mature enzyme, eGFP fusion (Elizabethkingia meningoseptica, UniProt Q9KJX5); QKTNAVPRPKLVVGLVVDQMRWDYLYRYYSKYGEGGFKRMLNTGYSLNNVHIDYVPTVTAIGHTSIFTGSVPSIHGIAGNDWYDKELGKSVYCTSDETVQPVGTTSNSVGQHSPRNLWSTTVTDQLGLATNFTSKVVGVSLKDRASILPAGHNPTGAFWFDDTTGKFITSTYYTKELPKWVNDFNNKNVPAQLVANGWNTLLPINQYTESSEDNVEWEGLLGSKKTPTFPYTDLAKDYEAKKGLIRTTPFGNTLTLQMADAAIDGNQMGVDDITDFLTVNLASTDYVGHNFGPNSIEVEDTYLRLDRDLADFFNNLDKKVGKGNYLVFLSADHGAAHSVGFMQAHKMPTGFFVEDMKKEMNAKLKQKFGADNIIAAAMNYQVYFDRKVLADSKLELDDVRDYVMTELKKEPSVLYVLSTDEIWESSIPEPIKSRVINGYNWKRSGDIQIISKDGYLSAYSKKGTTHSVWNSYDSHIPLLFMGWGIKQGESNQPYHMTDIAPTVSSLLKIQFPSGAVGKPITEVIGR
| Variant | oxyanion analog dissociation constant |
| --- | --- |
| L407V | 750 nM |
| K85V | 522 nM |
| L364V | 972 nM |
| V194G | 470 nM |
| S505G | 572 nM |
| P411V | 539 nM |
| V215A | 680 nM |
| D161G | 1.52 µM |

Set 2
Target: CCNE2, cyclin fold, Cln2 fusion (human)
Technique: yeast growth competition, sequencing
Matrix: yeast
Setting: strong parent motif
Relative to: not given
Reading: higher = stronger binding
Starting sequence: viral docking peptide; TSVRRALFTGGSD; partner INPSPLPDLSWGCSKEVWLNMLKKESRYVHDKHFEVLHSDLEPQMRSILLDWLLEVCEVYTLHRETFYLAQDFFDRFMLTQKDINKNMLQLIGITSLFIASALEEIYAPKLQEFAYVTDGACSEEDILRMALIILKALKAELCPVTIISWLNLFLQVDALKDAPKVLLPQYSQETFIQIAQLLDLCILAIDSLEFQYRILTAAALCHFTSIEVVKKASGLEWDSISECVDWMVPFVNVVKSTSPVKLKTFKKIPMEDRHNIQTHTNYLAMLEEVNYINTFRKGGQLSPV
| Variant | normalised enrichment score |
| --- | --- |
| G10A | 3.9 |
| S12Q | 4.41 |
| L7N | 0.438 |
| G11F | 3.34 |
| L7H | 0.559 |
| G11R | 2.75 |
| T9E | 2.5 |
| T9A | 2.72 |

Mixed results
Effect on: cell-free assay
| SMILES | target | technique | tested at | quantity | value |
| --- | --- | --- | --- | --- | --- |
| CNC(=O)c1ccc(-c2cnn3ccc(C(=O)N(C)c4ccc(Cl)c(C(=O)OC)c4)cc23)cc1 | DRD1 (Homo sapiens, UniProt P21728) |  |  | IC50 | > 30 µM |
| Cn1cncc1[C@](O)(COc1ccc(C#N)cc1-c1ccc(OC(F)(F)F)cc1)c1ccc(C#N)cc1 | MERTK (Homo sapiens, UniProt Q12866) | competition with immobilised ligand | 1 µM | remaining binding | 84% |
